# Published values from different studies.
# Parts stem from different laboratories: compare values within a part only. Positions count from the first letter of the parent shown.

# Set 1
# Target: Interferon regulatory factor 7, full length, phosphomimetic (IRF7, Homo sapiens, UniProt Q92985, residues 1-503, S471D/S472D/S475D/S476D/S477D/S483D/S484D/S487D)
# Sequence of UniProt Q92985 (whole entry, unmodified, looked up): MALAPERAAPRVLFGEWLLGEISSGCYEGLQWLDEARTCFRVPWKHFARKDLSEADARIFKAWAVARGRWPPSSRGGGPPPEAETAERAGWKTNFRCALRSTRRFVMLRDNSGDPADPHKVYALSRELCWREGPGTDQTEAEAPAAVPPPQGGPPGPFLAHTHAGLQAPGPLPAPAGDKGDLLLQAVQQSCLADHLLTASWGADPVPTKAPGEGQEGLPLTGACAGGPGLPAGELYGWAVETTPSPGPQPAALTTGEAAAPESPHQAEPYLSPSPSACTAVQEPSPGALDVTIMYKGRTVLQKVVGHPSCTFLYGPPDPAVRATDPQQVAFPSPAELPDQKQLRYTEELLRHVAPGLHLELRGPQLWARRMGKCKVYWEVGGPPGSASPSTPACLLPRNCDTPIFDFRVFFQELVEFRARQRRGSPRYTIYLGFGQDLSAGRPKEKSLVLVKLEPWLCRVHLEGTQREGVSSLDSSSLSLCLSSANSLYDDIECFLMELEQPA
# Technique: protein-binding microarray
# Form: double-stranded DNA, one strand shown
# Matrix: in vitro
# Tested at: 2200 nM top
# Setting: 60-bp whole probe
# Added: salmon DNA 0.4 mg/ml
# Relative to: random background probes
# Direction: higher = stronger binding
# Shared flanks, not repeated: GCCTAGCAC … GTCTTGATTCGCTTGACGCTGCTG
Sequence,fitted relative affinity
TTAGGTATGCTTTTCCTTTAGTGCTAG,1.7 z-score
GTTTGTCCCTATTTAAGATAGTGCTAG,1.93 z-score
TTAGGTTTCGCCACTGGGTTAGTGCTA,1.69 z-score
GATGGTATCGGTATCGGGACGTGCTAG,0.325 z-score
TTAGGACTGGGTTTCGGCTAGTGCTAG,0.662 z-score
TTAGGACTGGGACTGGGTAAGTGCTAG,-1.03 z-score
GACGGTTTCGGGCTCGGGACGTGCTAG,3.16 z-score
GACGATAGCGGGACTGGAGACGTGCTA,-0.62 z-score
TCATATTAGAGTCTCAAACTGTGCTAG,0.231 z-score

# Set 2
# Target: Histone acetyltransferase KAT6A, winged helix 1, GST fusion (KAT6A, Homo sapiens, UniProt Q92794, residues 1-85)
# Technique: protein binding microarray
# Form: double-stranded DNA, one strand shown
# Matrix: in vitro
# Tested at: not given
# Setting: 8-mer, flanks averaged, mean of 2 arrays, mostly near background
# Relative to: not given
# Direction: higher = stronger binding
# Target sequence (chain): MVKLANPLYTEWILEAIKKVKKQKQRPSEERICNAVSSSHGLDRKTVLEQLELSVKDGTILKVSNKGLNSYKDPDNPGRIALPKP
Sequence,E-score
AAGCTGGA,-0.138
AATTTACT,-0.038
CTGAAATC,-0.152
CCCTACGA,-0.153
ACATCTGA,-0.0627
GCGACACC,0.223
ATCCTGCG,0.0293
CAGCTGCA,-0.0599

# Set 3
# Target: CCNB3, cyclin fold, Cln2 fusion (human)
# Technique: yeast growth competition, sequencing
# Matrix: yeast
# Setting: weak parent motif
# Relative to: not given
# Direction: higher = stronger binding
# Starting sequence: SLBP docking peptide (human); ARYKRKLLINDFG; partner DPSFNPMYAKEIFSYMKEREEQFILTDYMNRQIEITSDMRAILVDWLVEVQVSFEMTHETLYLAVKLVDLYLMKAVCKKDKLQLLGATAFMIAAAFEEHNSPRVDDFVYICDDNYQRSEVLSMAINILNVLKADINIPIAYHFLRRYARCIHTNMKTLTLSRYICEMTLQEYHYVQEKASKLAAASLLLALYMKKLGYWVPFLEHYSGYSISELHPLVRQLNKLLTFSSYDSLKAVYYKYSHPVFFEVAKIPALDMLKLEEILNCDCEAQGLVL
Variant,normalised enrichment score
K4C,-0.0165
A1E,0.205
D11F,0.155
I9G,0.238
F12G,0.049

# Mixed results
Substance,target,test,system,setting,how to read,measurement,value
"PhoQ, residues 284 288 289 292 302 303 TNASYF","PhoP, residues 12 14 15 18 19 HLGGL (Escherichia coli, UniProt P23836)","Sort-seq, refers to: YFP reporter",E. coli,"PhoQ-PhoP variant library, added: 10 µM Mg2+","relative to: high Mg2+ state, higher = stronger signaling",fold induction,2.21

# For quick reference, copied from above (set 3):
Variant,normalised enrichment score
D11F,0.155
I9G,0.238
